Literature values, collected from citations in different studies.
Each line is one published result; not all experiments were run side by side. ± marks the error that the study gave.
Tpm1 K15N: Tropomyosin alpha-1 chain (Tpm1, Rattus norvegicus, UniProt P04692, K15N)
Sequence of UniProt P04692 (whole entry, unmodified, looked up): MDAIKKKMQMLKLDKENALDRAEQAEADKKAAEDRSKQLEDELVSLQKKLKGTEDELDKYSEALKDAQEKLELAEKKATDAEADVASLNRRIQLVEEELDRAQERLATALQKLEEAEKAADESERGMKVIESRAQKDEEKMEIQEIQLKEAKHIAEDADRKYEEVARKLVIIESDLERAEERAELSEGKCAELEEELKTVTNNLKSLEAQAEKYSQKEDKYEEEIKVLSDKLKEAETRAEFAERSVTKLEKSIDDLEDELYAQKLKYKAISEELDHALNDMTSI
B1: CCL1; sequence looked up; chain KSMQVPFSRCCFSFAEQEIPLRAILCYRNTSSICSNEGLIFKLKRGKEACALDTVGWVQRHRKMLRHCPSKRK
Sequence of UniProt Q9ULZ3 (whole entry, looked up): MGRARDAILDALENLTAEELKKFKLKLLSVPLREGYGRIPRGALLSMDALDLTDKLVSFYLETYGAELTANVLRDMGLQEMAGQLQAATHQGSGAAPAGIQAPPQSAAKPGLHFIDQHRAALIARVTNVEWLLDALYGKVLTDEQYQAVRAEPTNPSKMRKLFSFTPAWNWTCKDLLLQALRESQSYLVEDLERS
Sequence of UniProt Q13308 (whole entry, looked up): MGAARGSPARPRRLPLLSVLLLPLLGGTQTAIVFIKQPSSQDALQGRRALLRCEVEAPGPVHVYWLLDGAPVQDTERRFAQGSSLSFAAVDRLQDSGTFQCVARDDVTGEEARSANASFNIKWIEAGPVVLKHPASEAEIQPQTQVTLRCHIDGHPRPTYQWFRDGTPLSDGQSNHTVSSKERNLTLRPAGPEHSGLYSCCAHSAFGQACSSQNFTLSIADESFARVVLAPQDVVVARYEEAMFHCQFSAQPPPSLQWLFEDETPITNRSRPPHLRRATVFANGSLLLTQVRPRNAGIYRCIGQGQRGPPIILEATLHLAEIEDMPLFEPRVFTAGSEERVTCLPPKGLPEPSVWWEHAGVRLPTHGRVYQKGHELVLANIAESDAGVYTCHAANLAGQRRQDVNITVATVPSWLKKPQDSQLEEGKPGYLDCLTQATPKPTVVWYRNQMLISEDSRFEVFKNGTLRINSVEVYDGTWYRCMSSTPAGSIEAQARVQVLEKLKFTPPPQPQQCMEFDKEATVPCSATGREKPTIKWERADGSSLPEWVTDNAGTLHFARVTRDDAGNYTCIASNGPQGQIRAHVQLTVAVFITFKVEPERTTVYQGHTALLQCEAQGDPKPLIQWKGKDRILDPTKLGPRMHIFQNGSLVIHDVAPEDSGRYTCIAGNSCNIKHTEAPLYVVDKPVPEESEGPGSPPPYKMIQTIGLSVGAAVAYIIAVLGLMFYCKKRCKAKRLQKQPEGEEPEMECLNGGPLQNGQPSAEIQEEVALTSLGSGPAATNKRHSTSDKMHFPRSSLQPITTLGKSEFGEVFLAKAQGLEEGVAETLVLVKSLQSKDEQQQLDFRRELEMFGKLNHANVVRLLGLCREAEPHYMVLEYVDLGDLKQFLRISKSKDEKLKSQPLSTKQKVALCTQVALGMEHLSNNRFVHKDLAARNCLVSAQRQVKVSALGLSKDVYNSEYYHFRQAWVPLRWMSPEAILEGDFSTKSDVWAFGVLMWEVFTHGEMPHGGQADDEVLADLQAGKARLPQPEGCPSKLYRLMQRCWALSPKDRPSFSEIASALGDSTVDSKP
Sequence of UniProt P45481 (whole entry, looked up): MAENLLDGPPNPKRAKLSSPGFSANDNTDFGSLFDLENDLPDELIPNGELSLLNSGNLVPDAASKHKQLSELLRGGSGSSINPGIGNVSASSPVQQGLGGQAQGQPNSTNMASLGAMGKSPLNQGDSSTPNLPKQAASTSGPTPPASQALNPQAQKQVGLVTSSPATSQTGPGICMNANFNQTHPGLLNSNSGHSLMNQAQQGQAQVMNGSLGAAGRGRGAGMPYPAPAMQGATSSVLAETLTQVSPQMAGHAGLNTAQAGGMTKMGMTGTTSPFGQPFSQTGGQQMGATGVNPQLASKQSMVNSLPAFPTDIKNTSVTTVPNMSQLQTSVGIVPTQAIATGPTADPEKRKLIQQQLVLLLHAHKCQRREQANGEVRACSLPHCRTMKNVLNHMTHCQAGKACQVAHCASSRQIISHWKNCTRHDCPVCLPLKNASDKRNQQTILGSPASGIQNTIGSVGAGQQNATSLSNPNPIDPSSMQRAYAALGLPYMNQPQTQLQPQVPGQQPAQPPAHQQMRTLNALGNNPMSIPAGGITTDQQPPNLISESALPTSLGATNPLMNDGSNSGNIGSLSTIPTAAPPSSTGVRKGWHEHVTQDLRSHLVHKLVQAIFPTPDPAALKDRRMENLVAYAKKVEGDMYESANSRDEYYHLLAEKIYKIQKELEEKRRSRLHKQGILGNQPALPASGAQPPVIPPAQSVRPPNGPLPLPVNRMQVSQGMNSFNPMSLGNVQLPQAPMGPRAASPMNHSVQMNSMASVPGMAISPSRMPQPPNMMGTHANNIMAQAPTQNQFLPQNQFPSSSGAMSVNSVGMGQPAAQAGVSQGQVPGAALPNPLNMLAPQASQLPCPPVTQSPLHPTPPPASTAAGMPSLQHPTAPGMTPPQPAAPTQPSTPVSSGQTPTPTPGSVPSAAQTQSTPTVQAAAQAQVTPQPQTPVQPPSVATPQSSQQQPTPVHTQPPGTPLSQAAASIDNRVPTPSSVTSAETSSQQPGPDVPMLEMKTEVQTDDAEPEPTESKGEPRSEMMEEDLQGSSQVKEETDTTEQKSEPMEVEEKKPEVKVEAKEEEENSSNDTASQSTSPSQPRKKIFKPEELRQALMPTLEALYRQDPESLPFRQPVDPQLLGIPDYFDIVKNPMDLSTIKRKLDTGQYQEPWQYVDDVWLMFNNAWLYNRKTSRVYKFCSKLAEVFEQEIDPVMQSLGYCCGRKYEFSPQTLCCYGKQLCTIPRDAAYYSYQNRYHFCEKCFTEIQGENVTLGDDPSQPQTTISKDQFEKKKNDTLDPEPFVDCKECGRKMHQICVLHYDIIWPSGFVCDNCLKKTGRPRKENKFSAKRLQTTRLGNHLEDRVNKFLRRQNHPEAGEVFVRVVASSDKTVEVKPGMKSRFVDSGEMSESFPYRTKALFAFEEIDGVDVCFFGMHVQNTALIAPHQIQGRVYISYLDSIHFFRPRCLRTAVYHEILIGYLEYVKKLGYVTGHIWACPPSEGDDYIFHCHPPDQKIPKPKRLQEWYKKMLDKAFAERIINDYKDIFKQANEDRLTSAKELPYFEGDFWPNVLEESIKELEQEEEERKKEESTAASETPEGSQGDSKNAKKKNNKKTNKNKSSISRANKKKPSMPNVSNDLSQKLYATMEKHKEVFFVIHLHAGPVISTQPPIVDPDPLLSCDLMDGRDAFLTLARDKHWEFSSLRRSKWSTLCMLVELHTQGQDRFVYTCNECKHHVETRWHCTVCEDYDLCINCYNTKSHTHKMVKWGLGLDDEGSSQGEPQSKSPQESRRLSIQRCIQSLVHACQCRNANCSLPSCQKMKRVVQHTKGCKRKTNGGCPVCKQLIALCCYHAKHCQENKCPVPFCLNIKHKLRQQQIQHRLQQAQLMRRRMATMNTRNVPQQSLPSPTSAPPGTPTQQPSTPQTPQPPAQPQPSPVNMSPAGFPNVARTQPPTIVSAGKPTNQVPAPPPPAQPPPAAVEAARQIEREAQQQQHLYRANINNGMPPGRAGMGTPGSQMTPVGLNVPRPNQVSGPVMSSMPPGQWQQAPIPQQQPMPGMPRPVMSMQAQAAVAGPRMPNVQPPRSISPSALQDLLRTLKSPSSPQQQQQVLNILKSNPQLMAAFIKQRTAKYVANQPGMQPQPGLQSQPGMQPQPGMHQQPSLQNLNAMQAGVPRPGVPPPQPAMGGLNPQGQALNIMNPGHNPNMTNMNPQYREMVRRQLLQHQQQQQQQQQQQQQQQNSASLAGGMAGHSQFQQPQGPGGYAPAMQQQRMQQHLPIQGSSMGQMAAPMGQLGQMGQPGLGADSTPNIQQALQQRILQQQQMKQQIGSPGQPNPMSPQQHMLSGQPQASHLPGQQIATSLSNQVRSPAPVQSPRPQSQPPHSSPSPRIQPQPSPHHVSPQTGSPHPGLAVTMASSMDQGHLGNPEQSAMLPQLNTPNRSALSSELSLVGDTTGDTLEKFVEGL

MAIRIIGRLARVRARVVARVRSRLLADDPPEDLLRVARRKGRRWFLFLS
MIC (Escherichia coli; peptide): 25 µM

epoetin alfa
EC50 (UT7/EPO; cell proliferation, agonist): ~0.035 nM

B1 (CCL1)
EC50 (CCR8 Y42A mutant; IP accumulation, agonist): 11 nM

GVLDILKGAAKDLAGHVATKVINKI
MIC (Acinetobacter baumannii; peptide): > 512 µg/mL

VAIA
IC50 (PC-12; Aβ42-induced toxicity, inhibitor, LDH release; peptide; added: Aβ42): 14 ± 2 µM

STFGYRRGLSKYESIDEDELLASLSAEELKELERELEDIE (Lmod2(2-41); sequence looked up)
Kd (Tpm1 K15N; CD thermal unfolding; peptide; 30 °C): 2.31 ± 0.07 µM

KWIKIWFIWRRIKWRK
MIC (Escherichia coli; peptide): 15.6 µg/mL

fibrinogen
bond lifetime (integrin αIIbβ3; laser trap; zero force): ~15 s

ifinatamab deruxtecan
partial response (patients with advanced solid tumours; dose not given): 21%

teicoplanin
total plasma clearance (human patients): 0.333 mL/min/kg

ATCTAACTGCTGCGCCGCCGGGAAAATACTGTACGGTTAGA (ssDNA)
Kd (PTK7 31-1070 (Homo sapiens, UniProt Q13308); flow cytometry; in cells, not purified): 0.00081 µM

VGGVVIA
viability (PC-12, differentiated; MTT; peptide; 10-fold excess over Aβ42, added: Aβ42 5 µM; reference: untreated): 80 ± 3%

RGDSPA
dissociation rate constant (integrin αIIbβ3; AFM dynamic force spectroscopy; peptide): ~1.5 s⁻¹

PYCARD PYD domain (Homo sapiens, UniProt Q9ULZ3)
Kd (itself; NMR): 65 µM

LLGGSLSSLDAAFR
retention coefficient S (isocratic RP-HPLC, C18 column; peptide, water/acetonitrile, 0.1% TFA; 25 °C): 19.4

YRAAMLRRQYMMT
MIC (Escherichia coli; peptide): > 1000 µg/mL

indirubin-3'-monoxime
IC50 (HUVEC; [3H]thymidine incorporation): 0.36 µM

dulaglutide
tmax (human; once weekly dosing): 24 to 72 h

HIF1A CTAD (Homo sapiens, UniProt Q16665)
Kd (CBP TAZ1 domain (Mus musculus, UniProt P45481); fluorescence anisotropy): 0.01 µM

MVGGVVIA
viability (PC-12, differentiated; MTT; peptide; 10-fold excess over Aβ42, added: Aβ42 5 µM; reference: untreated): 82 ± 4%

MSYRKELEKYRDLDEDKILGALTEEELRKLENELEELD
Kd (Tpm1 K15N; CD thermal unfolding; 30 °C): 3.77 ± 0.01 µM

AIVV
IC50 (PC-12; Aβ42-induced toxicity, inhibitor, LDH release; peptide; added: Aβ42): 22 ± 3 µM

insulin (human)
transendothelial electrical resistance (BBB endothelial monolayers; outcome: increased; concentration not given): increased

RWIKIWFQNRRWKWKK
MIC (Staphylococcus aureus; peptide, methicillin-resistant): 62.5 µg/mL

AVIA
IC50 (PC-12; Aβ42-induced toxicity, inhibitor, MTT; peptide; added: Aβ42): 53 ± 10 µM

MRNFFKTRLRKYGGKKELLKKSRAFGLKTKKRSGSFFPRRLAYKEEFY
MIC (Escherichia coli; peptide): > 100 µM

pegcetacoplan
time to steady state (healthy human volunteers, serum; subcutaneous, daily for 28 days): ≤ 22 days

Some of these lines once more:
AIVV
IC50 (PC-12; Aβ42-induced toxicity, inhibitor, LDH release; peptide; added: Aβ42): 22 ± 3 µM

LLGGSLSSLDAAFR
retention coefficient S (isocratic RP-HPLC, C18 column; peptide, water/acetonitrile, 0.1% TFA; 25 °C): 19.4
